Measured values gathered from unrelated publications.
Numbered parts are unrelated; each lists some results of a single study. Substitutions count along the parent as printed.

Sample 1 — method: RNA Bind-n-Seq; molecule type: RNA; medium: in vitro; concentration: 200 nM; notes: whole 134-nt RNA, ends assumed; together with: 150 mM LiCl; relative to: input library; reading: higher = stronger binding; each molecule: 7-deaza-guanosine replaces G
Target: Ras GTPase-activating protein-binding protein 1, full length (G3BP1, Homo sapiens, UniProt Q13283)
Sequence of UniProt Q13283 (whole entry, looked up): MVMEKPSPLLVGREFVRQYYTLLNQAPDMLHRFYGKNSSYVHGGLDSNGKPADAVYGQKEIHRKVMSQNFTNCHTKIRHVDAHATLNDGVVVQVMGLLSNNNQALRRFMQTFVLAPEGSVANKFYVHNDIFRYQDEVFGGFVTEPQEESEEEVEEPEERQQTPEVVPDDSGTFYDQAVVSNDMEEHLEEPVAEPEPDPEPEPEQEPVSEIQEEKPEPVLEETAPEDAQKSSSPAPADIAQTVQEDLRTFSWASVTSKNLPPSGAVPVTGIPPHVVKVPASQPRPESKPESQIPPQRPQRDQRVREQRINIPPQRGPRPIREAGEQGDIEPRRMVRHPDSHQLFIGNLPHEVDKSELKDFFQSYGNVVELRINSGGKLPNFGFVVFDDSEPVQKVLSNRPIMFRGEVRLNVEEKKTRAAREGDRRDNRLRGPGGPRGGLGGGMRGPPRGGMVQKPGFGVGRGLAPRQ
Constant ends, left off below: GGGAGUUCUACAGUCCGACGAUC … UGGAAUUCUCGGGUGUCAAGG
| Strand | log2 enrichment |
| --- | --- |
| GCAGGAAGUAAAAACAAAUGGAAAUGCUUCGGAUAGUGGCAGGGGUGGGGGUUGCUAAGGAAAUGGUGGGAUGGGAGUGGGUAAAGAGUU | 0.126 |
| GCAGGAAGUAAAAACAAAUGGAAAUGCUUCGGAUAGUGGCAGGGGUGGGGGUUGCUAAGGAAAGGGUGGGAUGGGAGUGGGUAAGGAGUU | -0.141 |
| ACCAUGCAGGUGGGCAUCUUUGGGAAGUGGGGCAAGGGGGGGAUAGGGAGGGGGGGAACACUUUGGGAACAGGUGGUCCCAGGUCGUUUC | 0.157 |
| UGGGAGGUGGAUUUUGUUUAUUUUUUUAGCUCAUUUCCAGGGGUGGGAAUUUUUUUUUAAUAUGUGUCAUGAAUAAAGUUGUUUUCGAAA | -0.478 |
| UAUCUUUAGAGGAGGAUCUGAUGGAUAUGGCAGUGGACGUGGAUUUGGGGAUGGCUAUAAUGGGUAUGGAGGAGGACCUGGAGGUGGCAA | -0.157 |

Sample 2 — method: protein binding microarray; molecule type: double-stranded DNA, one strand shown; medium: in vitro; concentration: not given; relative to: not given; reading: higher = stronger binding
Target: Histone acetyltransferase KAT6A, winged helix 1, GST fusion (KAT6A, Homo sapiens, UniProt Q92794, residues 1-85)
Notes: 8-mer, flanks averaged, mean of 2 arrays, mostly near background
Target sequence (chain): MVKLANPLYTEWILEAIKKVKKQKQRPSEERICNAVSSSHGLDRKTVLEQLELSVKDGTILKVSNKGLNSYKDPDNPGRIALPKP
| Strand | E-score |
| --- | --- |
| CATCGTAA | 0.0593 |
| CTAAGATC | -0.018 |
| CAAGTCAA | -0.222 |
| CAGATATG | -0.129 |

Sample 3 — target: CCNA1, cyclin fold, Cln2 fusion (human); method: yeast growth competition, sequencing; medium: yeast; notes: weak parent motif; relative to: not given; reading: higher = stronger binding
Starting sequence: INSM1 docking peptide (human); PKAIRKLHFEDEV
| Variant | normalised enrichment score |
| --- | --- |
| PKAIRKLQFEDEV [H8Q] | 0.608 |
| PKAKRKLHFEDEV [I4K] | 1.76 |
| PKALRKLHFEDEV [I4L] | 1.32 |
| PKAIRKHHFEDEV [L7H] | 0.165 |
| PKAIRKEHFEDEV [L7E] | 0.153 |

Other studies, line by line
| Molecule | target | test | system | conditions | scale | endpoint | result |
| --- | --- | --- | --- | --- | --- | --- | --- |
| PhoQ, residues 284 288 289 292 302 303 SIHLQL | PhoP, residues 12 14 15 18 19 LWHVM (Escherichia coli, UniProt P23836) | Sort-seq, refers to: YFP reporter | E. coli | PhoQ-PhoP variant library, together with: 10 µM Mg2+ | relative to: high Mg2+ state, higher = stronger signaling | fold induction | 1.13 |

Excerpt of the above (sample 1):
| Strand | log2 enrichment |
| --- | --- |
| UGGGAGGUGGAUUUUGUUUAUUUUUUUAGCUCAUUUCCAGGGGUGGGAAUUUUUUUUUAAUAUGUGUCAUGAAUAAAGUUGUUUUCGAAA | -0.478 |
